Published values gathered from unrelated publications.
Each line is one published result; not all experiments were run side by side. Numbers after ± are the reported error.
FPR1: fMet-Leu-Phe receptor (FPR1, Homo sapiens, UniProt P21462)
Mc1r: Melanocyte-stimulating hormone receptor (Mc1r, Mus musculus, UniProt Q01727)
Chain of UniProt Q01727 (whole entry, looked up): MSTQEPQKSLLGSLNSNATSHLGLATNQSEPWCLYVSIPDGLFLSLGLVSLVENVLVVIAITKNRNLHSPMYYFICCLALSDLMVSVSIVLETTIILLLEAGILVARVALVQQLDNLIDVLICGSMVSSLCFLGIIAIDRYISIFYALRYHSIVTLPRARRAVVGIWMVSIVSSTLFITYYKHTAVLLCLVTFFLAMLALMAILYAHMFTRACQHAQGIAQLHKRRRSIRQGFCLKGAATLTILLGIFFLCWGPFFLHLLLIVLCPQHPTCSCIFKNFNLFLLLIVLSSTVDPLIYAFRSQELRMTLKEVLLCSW
CHRM1: Muscarinic acetylcholine receptor M1 (CHRM1, Homo sapiens, UniProt P11229)
Chain of UniProt P11229 (whole entry, looked up): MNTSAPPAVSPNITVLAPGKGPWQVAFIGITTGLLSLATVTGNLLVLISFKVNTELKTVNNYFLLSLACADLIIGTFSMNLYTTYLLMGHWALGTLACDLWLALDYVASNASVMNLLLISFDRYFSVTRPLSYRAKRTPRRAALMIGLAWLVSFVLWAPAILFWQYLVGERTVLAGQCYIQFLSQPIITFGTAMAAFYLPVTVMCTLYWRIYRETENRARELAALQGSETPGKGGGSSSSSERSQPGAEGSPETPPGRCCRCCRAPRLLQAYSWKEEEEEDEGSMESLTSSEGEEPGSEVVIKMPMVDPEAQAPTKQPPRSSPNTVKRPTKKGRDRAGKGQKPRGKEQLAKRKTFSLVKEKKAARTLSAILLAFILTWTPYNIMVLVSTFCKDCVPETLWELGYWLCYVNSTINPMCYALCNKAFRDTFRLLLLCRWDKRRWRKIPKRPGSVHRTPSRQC
GRPR: Gastrin-releasing peptide receptor (GRPR, Homo sapiens, UniProt P30550)
Chain of UniProt P30550 (whole entry, looked up): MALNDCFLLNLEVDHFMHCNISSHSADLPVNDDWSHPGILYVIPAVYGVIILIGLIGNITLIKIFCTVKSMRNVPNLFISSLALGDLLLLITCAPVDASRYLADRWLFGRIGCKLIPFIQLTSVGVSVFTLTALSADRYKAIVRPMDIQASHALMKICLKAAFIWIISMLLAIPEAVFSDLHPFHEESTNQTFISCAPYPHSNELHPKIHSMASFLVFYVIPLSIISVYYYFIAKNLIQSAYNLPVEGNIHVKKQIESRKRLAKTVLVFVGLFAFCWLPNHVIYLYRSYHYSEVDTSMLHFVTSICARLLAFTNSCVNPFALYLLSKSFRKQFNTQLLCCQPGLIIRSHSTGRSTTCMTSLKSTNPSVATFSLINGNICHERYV
uidA: Beta-glucuronidase (uidA, Escherichia coli, UniProt P05804)
Chain of UniProt P20309 (whole entry, unmodified, looked up): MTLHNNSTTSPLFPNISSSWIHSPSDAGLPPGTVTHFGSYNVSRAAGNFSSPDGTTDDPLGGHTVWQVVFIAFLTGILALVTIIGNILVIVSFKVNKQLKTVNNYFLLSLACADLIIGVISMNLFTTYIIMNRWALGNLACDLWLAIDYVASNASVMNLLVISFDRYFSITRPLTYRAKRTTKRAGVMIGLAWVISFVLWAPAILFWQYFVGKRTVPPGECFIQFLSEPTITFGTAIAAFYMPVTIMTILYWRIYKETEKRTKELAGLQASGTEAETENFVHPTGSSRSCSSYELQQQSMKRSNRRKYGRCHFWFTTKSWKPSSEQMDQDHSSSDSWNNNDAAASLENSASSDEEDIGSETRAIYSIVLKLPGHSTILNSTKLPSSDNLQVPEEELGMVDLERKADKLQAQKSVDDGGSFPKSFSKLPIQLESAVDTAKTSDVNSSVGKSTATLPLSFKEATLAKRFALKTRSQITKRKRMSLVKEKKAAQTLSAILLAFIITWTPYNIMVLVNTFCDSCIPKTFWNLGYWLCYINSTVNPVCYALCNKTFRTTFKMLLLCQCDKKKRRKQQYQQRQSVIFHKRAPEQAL
Chain of UniProt P35372 (whole entry, looked up): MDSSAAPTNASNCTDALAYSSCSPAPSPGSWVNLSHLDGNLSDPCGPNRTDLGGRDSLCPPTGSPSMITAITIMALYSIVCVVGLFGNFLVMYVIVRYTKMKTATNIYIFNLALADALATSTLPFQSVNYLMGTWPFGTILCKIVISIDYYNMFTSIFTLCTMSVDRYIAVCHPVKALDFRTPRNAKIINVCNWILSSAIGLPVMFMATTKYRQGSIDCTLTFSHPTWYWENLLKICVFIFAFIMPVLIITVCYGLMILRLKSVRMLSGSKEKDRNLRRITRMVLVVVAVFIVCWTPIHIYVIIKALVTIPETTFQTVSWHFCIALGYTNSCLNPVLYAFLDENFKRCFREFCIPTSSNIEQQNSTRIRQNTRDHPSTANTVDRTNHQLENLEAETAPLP
Chain of UniProt P05804 (whole entry, looked up): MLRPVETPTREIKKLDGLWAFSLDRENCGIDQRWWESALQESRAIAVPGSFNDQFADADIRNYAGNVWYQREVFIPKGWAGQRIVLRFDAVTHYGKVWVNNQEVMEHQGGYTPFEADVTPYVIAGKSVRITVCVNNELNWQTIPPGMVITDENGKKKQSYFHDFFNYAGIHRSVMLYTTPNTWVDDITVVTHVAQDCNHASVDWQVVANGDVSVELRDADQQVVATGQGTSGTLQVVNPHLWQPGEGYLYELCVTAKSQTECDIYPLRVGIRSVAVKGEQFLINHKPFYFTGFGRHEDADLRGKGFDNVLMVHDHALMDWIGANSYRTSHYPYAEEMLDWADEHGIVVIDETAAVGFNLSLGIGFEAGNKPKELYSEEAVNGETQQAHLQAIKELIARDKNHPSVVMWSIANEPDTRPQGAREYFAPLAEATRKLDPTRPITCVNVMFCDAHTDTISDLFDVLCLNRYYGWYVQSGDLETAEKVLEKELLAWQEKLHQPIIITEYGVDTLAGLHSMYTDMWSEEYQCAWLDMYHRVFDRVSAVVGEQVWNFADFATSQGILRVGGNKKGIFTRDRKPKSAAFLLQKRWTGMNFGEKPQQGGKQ
Chain of UniProt Q92847 (whole entry, looked up): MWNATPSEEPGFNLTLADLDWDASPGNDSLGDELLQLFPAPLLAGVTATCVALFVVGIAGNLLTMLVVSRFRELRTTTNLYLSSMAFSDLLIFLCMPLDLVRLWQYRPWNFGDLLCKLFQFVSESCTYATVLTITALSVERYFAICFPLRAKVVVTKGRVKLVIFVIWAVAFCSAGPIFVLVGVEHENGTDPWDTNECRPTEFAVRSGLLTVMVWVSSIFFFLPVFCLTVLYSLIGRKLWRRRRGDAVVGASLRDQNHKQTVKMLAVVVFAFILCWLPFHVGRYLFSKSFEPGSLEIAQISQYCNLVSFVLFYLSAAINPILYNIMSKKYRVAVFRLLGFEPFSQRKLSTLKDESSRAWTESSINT
Chain of UniProt O14791 (whole entry, unmodified, looked up): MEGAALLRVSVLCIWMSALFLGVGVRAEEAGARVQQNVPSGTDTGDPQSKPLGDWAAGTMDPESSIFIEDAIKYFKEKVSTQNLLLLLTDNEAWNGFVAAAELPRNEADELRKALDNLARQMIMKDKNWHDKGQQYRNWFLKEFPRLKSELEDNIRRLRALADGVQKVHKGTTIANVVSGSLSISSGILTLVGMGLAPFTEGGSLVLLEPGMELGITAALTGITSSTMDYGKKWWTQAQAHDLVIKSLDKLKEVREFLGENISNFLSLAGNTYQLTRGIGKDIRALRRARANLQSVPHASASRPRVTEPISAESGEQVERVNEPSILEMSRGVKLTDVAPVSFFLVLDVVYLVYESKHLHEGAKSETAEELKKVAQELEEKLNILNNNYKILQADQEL
Chain of UniProt Q6VVW5 (whole entry, looked up): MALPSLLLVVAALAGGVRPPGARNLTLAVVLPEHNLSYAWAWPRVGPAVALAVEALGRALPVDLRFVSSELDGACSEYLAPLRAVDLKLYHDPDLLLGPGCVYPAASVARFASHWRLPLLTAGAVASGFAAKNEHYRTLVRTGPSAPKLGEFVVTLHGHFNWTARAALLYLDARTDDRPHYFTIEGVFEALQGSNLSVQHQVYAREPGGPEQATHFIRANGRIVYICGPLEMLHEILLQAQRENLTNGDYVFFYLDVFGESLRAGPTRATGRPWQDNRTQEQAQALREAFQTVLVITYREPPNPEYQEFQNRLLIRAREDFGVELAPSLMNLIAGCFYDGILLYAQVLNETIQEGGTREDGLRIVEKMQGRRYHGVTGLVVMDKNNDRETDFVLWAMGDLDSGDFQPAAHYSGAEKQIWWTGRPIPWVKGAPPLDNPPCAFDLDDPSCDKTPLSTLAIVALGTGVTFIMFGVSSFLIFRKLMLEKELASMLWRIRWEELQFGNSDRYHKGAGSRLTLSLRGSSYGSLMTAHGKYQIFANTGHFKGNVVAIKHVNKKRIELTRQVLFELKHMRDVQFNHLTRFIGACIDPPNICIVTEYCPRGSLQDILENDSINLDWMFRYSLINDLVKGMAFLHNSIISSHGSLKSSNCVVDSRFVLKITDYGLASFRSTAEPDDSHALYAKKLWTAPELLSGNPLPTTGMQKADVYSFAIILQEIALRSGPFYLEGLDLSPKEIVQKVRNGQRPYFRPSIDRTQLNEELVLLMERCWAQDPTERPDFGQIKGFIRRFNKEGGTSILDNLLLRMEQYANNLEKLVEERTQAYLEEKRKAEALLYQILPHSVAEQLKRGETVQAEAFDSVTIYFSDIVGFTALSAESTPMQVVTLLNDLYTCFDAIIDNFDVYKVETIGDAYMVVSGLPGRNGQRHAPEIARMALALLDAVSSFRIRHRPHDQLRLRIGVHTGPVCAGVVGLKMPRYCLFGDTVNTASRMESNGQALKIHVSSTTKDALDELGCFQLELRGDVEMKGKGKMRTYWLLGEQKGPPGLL
Chain of UniProt P21452 (whole entry, looked up): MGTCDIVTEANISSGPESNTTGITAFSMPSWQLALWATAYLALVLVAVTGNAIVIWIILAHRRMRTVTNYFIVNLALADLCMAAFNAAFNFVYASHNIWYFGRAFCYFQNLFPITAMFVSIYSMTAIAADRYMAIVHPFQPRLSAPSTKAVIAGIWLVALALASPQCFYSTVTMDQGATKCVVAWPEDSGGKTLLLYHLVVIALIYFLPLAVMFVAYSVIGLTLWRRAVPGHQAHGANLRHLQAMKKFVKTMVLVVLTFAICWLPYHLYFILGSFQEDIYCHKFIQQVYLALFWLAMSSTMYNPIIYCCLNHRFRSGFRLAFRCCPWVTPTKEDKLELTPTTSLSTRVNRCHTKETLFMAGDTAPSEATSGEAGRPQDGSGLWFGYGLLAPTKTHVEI

C[C@]12C=CC(=O)C=C1CC[C@@H]1[C@@H]2[C@@H](O)C[C@@]2(C)[C@H]1C[C@H]1O[C@@H](C3CCCCC3)O[C@]12C(=O)CO  EC50 (NR3C1 (Homo sapiens, UniProt P04150); concentration not given): 4 nM
CSCC[C@H](NC=O)C(=O)N[C@@H](Cc1ccccc1)C(=O)N[C@H](C(=O)N[C@@H](Cc1ccccc1)C(=O)N[C@@H](CCC(=O)O)C(=O)N1CCC[C@H]1C(=O)N[C@@H](Cc1ccccc1)C(=O)N1CCC[C@H]1C(=O)N[C@H](C(=O)N[C@@H](CC(N)=O)C(=O)O)[C@@H](C)O)[C@@H](C)O  EC50 (FPR1; receptor surface downregulation, agonist; CHO cells; 1 h, 37 °C): 6.8 ± 100 nM
CC[C@H](C)[C@@H]1NC(=O)[C@H](CCCNC(=N)N)NC(=O)[C@H](CC(=O)O)NC(=O)[C@H](CC(C)C)NC(=O)[C@H](CCCCN)NC(=O)[C@H](CC(C)C)NC(=O)CNC(=O)[C@H](Cc2ccccc2)NC(=O)[C@@H](NC(=O)CNC(=O)[C@H](CCCCN)NC(=O)[C@H](CO)NC(=O)[C@H](CC(C)C)NC(=O)CNC(=O)[C@H](CCCCN)NC(=O)[C@H](CCCCN)NC(=O)[C@H](CCC(N)=O)NC(=O)[C@H](C)NC(=O)CNC(=O)[C@H](CCCCN)NC(=O)[C@H](Cc2ccc(O)cc2)NC(=O)[C@H](CCCCN)NC(=O)[C@H](CCCNC(=N)N)NC(=O)[C@H](C)NC(=O)[C@H](CCC(N)=O)NC(=O)[C@@H]2CCCN2C(=O)[C@H](Cc2c[nH]cn2)NC(=O)[C@H](CCC(=O)O)NC(=O)[C@H](CCC(N)=O)NC(=O)[C@@H](N)CC(C)C)CSSC[C@@H](C(=O)O)NC(=O)CNC(=O)[C@H](CC(C)C)NC(=O)CNC(=O)[C@H](CO)NC(=O)[C@H](CCSC)NC(=O)[C@H](CO)NC(=O)CNC1=O  EC50 (Atrial natriuretic peptide receptor 2 (Npr2, Mus musculus, UniProt Q6VVW5); guanylate cyclase activity, agonist, HTRF, refers to: cGMP; NIH3T3; 30 min, 37 °C): 3 nM
CC(=O)N[C@@H](CCCNC(=N)N)C(=O)N[C@@H](CCCNC(=N)N)C(=O)N[C@H](Cc1ccc(I)cc1)C(=O)N[C@@H](C(N)=O)[C@H](c1ccccc1)c1c[nH]c2ccccc12  EC50 (Mc1r; cAMP, agonist, AlphaScreen): 1400 nM
C[N+](C)(CC#CCOC1=NOCC1)CCCCCCNC(=O)CCOCCOCCOCCOCCNC(=O)CCCC(=O)NCCCCC(C(=O)O)N(CC(=O)O)CC(=O)O (stereo not drawn)  EC50 (CHRM1; calcium response, agonist, fluorescence calcium imaging; primary rat cortical astrocytes): 340 nM
CSCC[C@H](NC(=O)[C@H](CC(C)C)NC(=O)CNC(=O)[C@H](Cc1ccccc1)NC(=O)[C@H](Cc1ccccc1)NC(=O)[C@@H]1CCC(=O)N1)C(N)=O  EC50 (TACR2 (Homo sapiens, UniProt P21452); β-arrestin recruitment, agonist): 32 nM
CSCC[C@H](NC(=O)[C@H](CC(C)C)NC(=O)[C@H](CO)NC(=O)CNC(=O)[C@@H](NC(=O)[C@H](C)NC(=O)[C@H](Cc1c[nH]c2ccccc12)NC(=O)[C@H](CC(C)C)NC(=O)[C@@H]1CCC(=O)N1)C(C)C)C(N)=O  EC50 (GRPR; inositol phosphate, agonist): 89.1 nM
CN(C)[C@H](CNC(=O)/C=C/c1cccc2ccccc12)Cc1ccc(O)cc1  EC50 (Mu-type opioid receptor, with Gi3 (OPRM1, Homo sapiens, UniProt P35372); receptor activation, agonist): 19 nM
CC(=O)N[C@@H](CCCNC(=N)N)C(=O)N[C@@H](CCCNC(=N)N)C(=O)N[C@H](C(=O)N1Cc2ccccc2C[C@H]1C(N)=O)[C@@H](c1ccccc1)c1c[nH]c2ccccc12  EC50 (Mc1r; cAMP, agonist, AlphaScreen): 6700 nM
CC[C@H](C)[C@H](NC(=O)[C@H](CCCNC(=N)N)NC(=O)[C@@H]1CCCN1C(=O)[C@@H](NC(=O)[C@@H](NC(=O)[C@H](CCCCN)NC(=O)[C@H](CC(C)C)NC(=O)[C@H](CC(N)=O)NC(=O)[C@H](CCCCN)NC(=O)[C@@H](NC(=O)[C@H](C)NC(=O)[C@H](Cc1ccccc1)NC(=O)[C@H](CC(N)=O)NC(=O)[C@H](CCC(=O)O)NC(=O)CN)[C@@H](C)CC)[C@@H](C)O)[C@@H](C)CC)C(N)=O  EC50 (Ecdysis triggering hormone receptor B (Aedes aegypti, UniProt A7J265)): ~48 nM
CC(=O)N[C@@H](CCCNC(=N)N)C(=O)N[C@@H](Cc1ccc(O)cc1)C(=O)N[C@@H](CCCN/C(N)=N/C(=O)NCCCCN)C(=O)N[C@@H](CC(C)C)C(=O)N[C@@H](CCCNC(=N)N)C(=O)N[C@@H](Cc1ccc(O)cc1)C(N)=O  EC50 (NPY4R (Homo sapiens, UniProt P50391); β-arrestin 2 recruitment, agonist; HEK293T): 124 ± 24 nM
CCc1noc(CC)c1C(=O)O[C@H]1C(C)=C[C@]23C(=O)[C@@H](C=C(CO)[C@@H](O)[C@]12O)[C@H]1[C@@H](C[C@H]3C)C1(C)C  EC50 (PRKCQ (Homo sapiens, UniProt Q04759); enzyme activity, activator): 11 nM
CC(C)C[C@H](NC(=O)[C@H](CCCNC(=N)N)NC(=O)[C@@H]1CCCN1C(=O)[C@H](CCCCN)NC(=O)[C@H](Cc1ccccc1)NC(=O)CCC(=O)Nc1ccc2c(c1)Cc1cc(Br)ccc1-2)C(N)=O  EC50 (diapause hormone receptor (Helicoverpa zea, UniProt S5LVZ5); aequorin luminescence, agonist; CHO-K1 cells, Ga16 co-expressing): 20.6 nM
CSCC[C@H](NC(=O)[C@H](Cc1ccccc1)NC(=O)[C@H](Cc1c[nH]cn1)NC(=O)CNC(=O)[C@@H](NC(=O)[C@H](C)NC(=O)[C@H](Cc1c[nH]c2ccccc12)NC(=O)[C@H](CCC(N)=O)NC(=O)[C@@H]1CCC(=O)N1)C(C)C)C(N)=O  EC50 (GRPR; inositol phosphate, agonist): 0.17 nM
COCC(=O)NCCSc1c(-c2ccc(Br)cc2)[nH]c2ccccc12  EC50 (Apolipoprotein L1 (Homo sapiens, UniProt O14791, I384M/M228I/R255K/S342G); cell death rescue, inhibitor; HEK293 expressing Apolipoprotein L1): 1100 nM
C[N+]1([O-])CCN(C2=Nc3cc(Cl)ccc3Nc3ccccc32)CC1  EC50 (CHRM3 (Homo sapiens, UniProt P20309, A239G/Y149C); calcium signal, agonist): 6 nM
CC[C@H](C)[C@H](NC(=O)[C@H](CO)NC(=O)[C@H](Cc1ccc(O)cc1)NC(=O)[C@H](CC(=O)O)NC(=O)[C@H](CO)NC(=O)[C@@H](NC(=O)[C@H](Cc1ccccc1)NC(=O)[C@@H](NC(=O)CNC(=O)[C@H](CCC(=O)O)NC(=O)C(C)(C)NC(=O)[C@@H](N)Cc1ccc(O)cc1)[C@@H](C)O)[C@@H](C)CC)C(=O)N[C@@H](C)C(=O)N[C@@H](CCSC)C(=O)N[C@@H](CC(=O)O)C(=O)N[C@@H](CCCCN)C(=O)N[C@H](C(=O)N[C@@H](CCCNC(=N)N)C(=O)N[C@@H](CCC(N)=O)C(=O)N[C@@H](CCC(N)=O)C(=O)N[C@@H](CC(=O)O)C(=O)N[C@@H](Cc1ccccc1)C(=O)N[C@H](C(=O)N[C@@H](CC(N)=O)C(=O)N[C@@H](Cc1c[nH]c2ccccc12)C(=O)N[C@@H](CC(C)C)C(=O)N[C@@H](CC(C)C)C(=O)N[C@@H](C)C(=O)N[C@@H](CCC(N)=O)C(=O)N[C@@H](CCCCN)C(=O)NCC(=O)N[C@@H](CCCCN)C(=O)N[C@@H](CCCCN)C(=O)N[C@@H](CC(N)=O)C(=O)N[C@@H](CC(=O)O)C(=O)N[C@@H](Cc1c[nH]c2ccccc12)C(=O)N[C@@H](CCCCN)C(=O)N[C@@H](Cc1c[nH]cn1)C(=O)N[C@@H](CC(N)=O)C(=O)N[C@H](C(=O)N[C@H](C(=O)N[C@@H](CCC(N)=O)C(=O)O)[C@@H](C)O)[C@@H](C)CC)C(C)C)[C@@H](C)CC  EC50 (Gastric inhibitory polypeptide receptor (Mus musculus, UniProt Q0P543); reporter gene, agonist, luciferase): 0.0034 nM
CCCCC/C=C\C/C=C\C/C=C\C/C=C\CCCC(=O)NCCc1ccc(O)c(O)c1  EC50 (Trpv1 (Mus musculus, UniProt Q704Y3); ion current, agonist, whole-cell patch clamp; HEK293; 24 °C, wild type, +80 mV): 80 ± 50 nM
CSCC[C@H](NC(=O)[C@H](Cc1ccccc1)NC(=O)[C@H](Cc1c[nH]cn1)NC(=O)CNC(=O)[C@@H](NC(=O)[C@H](C)NC(=O)[C@H](Cc1c[nH]c2ccccc12)NC(=O)[C@H](CCC(N)=O)NC(=O)[C@@H]1CCCN1C(=O)[C@@H](NC(=O)[C@@H]1CCC(=O)N1)C(C)C)C(C)C)C(N)=O  EC50 (GRPR; inositol phosphate, agonist): 0.23 nM
C1CCc2c(c(N3CCOCC3)nc3sc4c(N5CCNCC5)nnnc4c23)C1  EC50 (uidA): 74 ± 7 nM
CC(C)C[C@H](NC(=O)[C@H](CC(C)C)NC(=O)[C@@H](Cc1c[nH]c2ccccc12)NC(=O)[C@@H](NC(=O)[C@@H](Cc1csc2ccccc12)NC(=O)[C@@H](N)CCCCN)[C@@H](c1ccccc1)c1c[nH]c2ccccc12)C(N)=O  EC50 (GHSR (Homo sapiens, UniProt Q92847); inositol phosphate, agonist, TR-FRET): > 1000 nM
CSCC[C@H](NC=O)C(=O)N[C@@H](Cc1ccccc1)C(=O)N[C@@H](CCC(=O)O)C(=O)N[C@@H](CC(=O)O)C(=O)N[C@@H](C)C(=O)N[C@H](C(=O)N[C@@H](C)C(=O)N[C@@H](Cc1c[nH]c2ccccc12)C(=O)N[C@@H](Cc1ccccc1)C(=O)O)C(C)C  EC50 (FPR1; receptor surface downregulation, agonist; CHO cells; 1 h, 37 °C): 1500 ± 100 nM
CCOC(=O)/C=C/[C@H](C[C@@H]1CCNC1=O)NC(=O)[C@H](Cc1ccccc1)NC(=O)[C@H](COC(C)(C)C)NC(=O)OCc1ccccc1  EC50 (Genome polyprotein, 3C protease (Coxsackievirus B3, UniProt P03313); protease activity, inhibitor, FLuc reporter; COS-1; 16 h): 4100 nM
C1CCN(c2nnnc3c2sc2nc(N4CCOCC4)c4c(c23)CCCC4)CC1  EC50 (uidA): > 10000 nM
N[C@H](C(=O)N1CCCC1)C1CCN(c2nccc3c(-c4ncc(Cl)cc4Cl)cccc23)CC1  EC50 (PADI4 (Homo sapiens, UniProt Q9UM07); thermal stability): 1950 nM
Clc1ccc2c(c1)N=C(N1CCNCC1)c1ccccc1N2  EC50 (CHRM3 (Homo sapiens, UniProt P20309); calcium signal, agonist): 490 nM
CC(C)[C@H]1CC[C@@H](N2CC[C@@](C)(c3cccc(O)c3)[C@@H](C)C2)CC1  EC50 (OPRM1 (Homo sapiens, UniProt P35372); GTPγS binding, agonist, radiometric): > 10000 nM
Cn1ccc(-c2ccc(Cn3cc(C(=O)N[C@H]4CCCC[C@@H]4O)c4c(F)cc(F)cc43)cn2)n1  EC50 (CHRM1; calcium signal, agonist): 5900 nM
CC[C@H](C)[C@H](NC(=O)CNC(=O)[C@H](CO)NC(=O)[C@H](CC(C)C)NC(=O)[C@@H](NC(=O)[C@H](CCCNC(=N)N)NC(=O)CNC(=O)[C@@H](NC(=O)[C@H](CC(C)C)NC(=O)[C@@H]1CCCN1C(=O)[C@H](CC(C)C)NC(=O)[C@@H](N)Cc1ccccc1)[C@@H](C)CC)C(C)C)C(=O)N[C@@H](CC(C)C)C(N)=O  EC50 (Formyl peptide receptor 2 (Mus musculus, UniProt O88536); calcium mobilisation, agonist, FLIPR Fluo-4; HEK-293T with Gα16): 690 nM
CCNc1nc(Cl)nc(NC(C)(C)C#N)n1  EC50 (Estrogen receptor (esr1, Oryzias latipes, UniProt P50241); receptor activation, agonist): > 100000 nM

Some of these lines once more:
Cn1ccc(-c2ccc(Cn3cc(C(=O)N[C@H]4CCCC[C@@H]4O)c4c(F)cc(F)cc43)cn2)n1  EC50 (CHRM1; calcium signal, agonist): 5900 nM
CC[C@H](C)[C@H](NC(=O)CNC(=O)[C@H](CO)NC(=O)[C@H](CC(C)C)NC(=O)[C@@H](NC(=O)[C@H](CCCNC(=N)N)NC(=O)CNC(=O)[C@@H](NC(=O)[C@H](CC(C)C)NC(=O)[C@@H]1CCCN1C(=O)[C@H](CC(C)C)NC(=O)[C@@H](N)Cc1ccccc1)[C@@H](C)CC)C(C)C)C(=O)N[C@@H](CC(C)C)C(N)=O  EC50 (Formyl peptide receptor 2 (Mus musculus, UniProt O88536); calcium mobilisation, agonist, FLIPR Fluo-4; HEK-293T with Gα16): 690 nM
